Experimental data pooled from the literature.
Every numbered part comes from another study and shows a few of its results, in no order.
Chain of UniProt P54764 (whole entry, looked up): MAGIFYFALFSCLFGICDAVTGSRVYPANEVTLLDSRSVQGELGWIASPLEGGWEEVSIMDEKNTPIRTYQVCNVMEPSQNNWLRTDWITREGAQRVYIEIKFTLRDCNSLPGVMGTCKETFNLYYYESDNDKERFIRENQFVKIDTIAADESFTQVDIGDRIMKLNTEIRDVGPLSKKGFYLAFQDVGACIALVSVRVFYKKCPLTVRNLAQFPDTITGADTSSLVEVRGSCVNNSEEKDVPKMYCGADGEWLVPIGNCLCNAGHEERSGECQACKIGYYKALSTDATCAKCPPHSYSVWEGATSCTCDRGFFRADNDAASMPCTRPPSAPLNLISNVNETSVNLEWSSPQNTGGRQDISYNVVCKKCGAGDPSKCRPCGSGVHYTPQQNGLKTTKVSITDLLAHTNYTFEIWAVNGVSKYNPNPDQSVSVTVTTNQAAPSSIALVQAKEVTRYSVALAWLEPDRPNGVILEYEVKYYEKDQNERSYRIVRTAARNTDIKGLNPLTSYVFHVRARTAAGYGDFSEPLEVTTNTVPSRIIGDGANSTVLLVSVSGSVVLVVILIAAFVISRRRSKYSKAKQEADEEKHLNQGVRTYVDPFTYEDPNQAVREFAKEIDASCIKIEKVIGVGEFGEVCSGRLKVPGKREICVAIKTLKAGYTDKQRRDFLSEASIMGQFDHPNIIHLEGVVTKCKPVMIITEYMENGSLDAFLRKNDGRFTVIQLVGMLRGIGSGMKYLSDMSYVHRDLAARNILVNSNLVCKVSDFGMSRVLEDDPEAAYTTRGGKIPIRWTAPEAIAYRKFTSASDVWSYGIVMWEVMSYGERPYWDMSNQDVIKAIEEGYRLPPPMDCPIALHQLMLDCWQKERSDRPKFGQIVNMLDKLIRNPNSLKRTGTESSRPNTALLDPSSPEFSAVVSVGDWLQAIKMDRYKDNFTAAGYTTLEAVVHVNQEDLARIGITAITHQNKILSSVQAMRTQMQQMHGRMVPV
Chain of UniProt Q13554 (whole entry, looked up): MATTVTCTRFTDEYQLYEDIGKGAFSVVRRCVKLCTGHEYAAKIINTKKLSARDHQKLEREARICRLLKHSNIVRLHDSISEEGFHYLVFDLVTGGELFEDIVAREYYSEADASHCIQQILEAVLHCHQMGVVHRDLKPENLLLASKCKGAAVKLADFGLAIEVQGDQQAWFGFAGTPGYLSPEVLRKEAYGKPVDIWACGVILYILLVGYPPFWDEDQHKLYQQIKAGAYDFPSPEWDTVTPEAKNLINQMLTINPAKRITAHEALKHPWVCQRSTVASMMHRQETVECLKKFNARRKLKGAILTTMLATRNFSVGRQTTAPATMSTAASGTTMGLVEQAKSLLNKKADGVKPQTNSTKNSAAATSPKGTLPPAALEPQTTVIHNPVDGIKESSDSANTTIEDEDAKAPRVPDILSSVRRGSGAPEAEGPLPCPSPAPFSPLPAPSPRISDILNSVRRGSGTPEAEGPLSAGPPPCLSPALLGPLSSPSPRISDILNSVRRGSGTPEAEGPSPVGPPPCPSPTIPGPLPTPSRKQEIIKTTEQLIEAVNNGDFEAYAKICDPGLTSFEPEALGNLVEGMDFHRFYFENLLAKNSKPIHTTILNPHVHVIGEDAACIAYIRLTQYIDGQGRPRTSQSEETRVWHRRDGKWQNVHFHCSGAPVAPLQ
Chain of UniProt Q9BYP7 (whole entry, looked up): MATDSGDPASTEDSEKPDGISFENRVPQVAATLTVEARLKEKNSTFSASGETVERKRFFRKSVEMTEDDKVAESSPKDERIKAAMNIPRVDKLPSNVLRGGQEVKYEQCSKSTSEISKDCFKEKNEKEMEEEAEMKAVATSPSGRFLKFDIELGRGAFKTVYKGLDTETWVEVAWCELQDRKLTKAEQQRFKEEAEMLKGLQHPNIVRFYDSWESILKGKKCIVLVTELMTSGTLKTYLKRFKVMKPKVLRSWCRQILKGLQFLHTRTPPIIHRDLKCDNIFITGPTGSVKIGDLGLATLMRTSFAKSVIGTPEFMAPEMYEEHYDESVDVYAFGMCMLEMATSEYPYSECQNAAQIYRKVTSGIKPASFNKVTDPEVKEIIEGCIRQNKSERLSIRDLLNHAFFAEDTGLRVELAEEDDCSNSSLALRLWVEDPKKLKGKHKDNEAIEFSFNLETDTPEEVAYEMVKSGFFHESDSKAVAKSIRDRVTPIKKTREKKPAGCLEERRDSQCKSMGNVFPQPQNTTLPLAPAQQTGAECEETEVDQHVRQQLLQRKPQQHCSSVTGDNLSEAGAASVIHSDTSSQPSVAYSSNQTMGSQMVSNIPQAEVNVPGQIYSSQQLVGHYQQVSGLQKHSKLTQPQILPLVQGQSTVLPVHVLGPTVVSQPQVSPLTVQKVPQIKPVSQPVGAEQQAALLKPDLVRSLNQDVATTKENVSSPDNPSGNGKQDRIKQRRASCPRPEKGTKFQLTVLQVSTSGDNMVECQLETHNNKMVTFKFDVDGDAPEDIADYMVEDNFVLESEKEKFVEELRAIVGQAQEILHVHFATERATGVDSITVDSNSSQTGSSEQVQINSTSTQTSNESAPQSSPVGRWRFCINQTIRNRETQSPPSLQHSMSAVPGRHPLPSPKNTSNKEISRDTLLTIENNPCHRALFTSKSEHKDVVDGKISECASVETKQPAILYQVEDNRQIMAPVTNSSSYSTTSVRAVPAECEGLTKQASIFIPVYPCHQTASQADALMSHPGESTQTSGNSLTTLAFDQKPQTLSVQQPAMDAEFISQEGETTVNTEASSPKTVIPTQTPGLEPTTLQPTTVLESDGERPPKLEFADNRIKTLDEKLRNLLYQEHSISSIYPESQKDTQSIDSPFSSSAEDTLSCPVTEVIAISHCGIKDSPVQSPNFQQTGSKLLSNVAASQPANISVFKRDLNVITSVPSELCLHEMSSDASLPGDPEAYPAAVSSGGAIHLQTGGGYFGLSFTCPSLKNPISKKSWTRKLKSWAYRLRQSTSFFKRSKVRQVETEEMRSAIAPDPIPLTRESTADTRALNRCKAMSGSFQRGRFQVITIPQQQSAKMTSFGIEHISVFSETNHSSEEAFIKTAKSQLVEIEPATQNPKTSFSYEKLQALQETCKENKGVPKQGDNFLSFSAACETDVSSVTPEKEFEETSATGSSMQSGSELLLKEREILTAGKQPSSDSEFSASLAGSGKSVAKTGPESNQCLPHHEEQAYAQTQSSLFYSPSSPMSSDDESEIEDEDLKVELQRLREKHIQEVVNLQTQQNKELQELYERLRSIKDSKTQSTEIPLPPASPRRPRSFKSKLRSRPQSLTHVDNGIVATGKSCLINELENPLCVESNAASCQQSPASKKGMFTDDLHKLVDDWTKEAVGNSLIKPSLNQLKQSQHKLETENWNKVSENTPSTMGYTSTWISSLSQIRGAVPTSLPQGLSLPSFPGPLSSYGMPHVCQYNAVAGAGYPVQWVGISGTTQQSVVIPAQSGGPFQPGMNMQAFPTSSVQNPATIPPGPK
Chain of UniProt Q8N568 (whole entry, looked up): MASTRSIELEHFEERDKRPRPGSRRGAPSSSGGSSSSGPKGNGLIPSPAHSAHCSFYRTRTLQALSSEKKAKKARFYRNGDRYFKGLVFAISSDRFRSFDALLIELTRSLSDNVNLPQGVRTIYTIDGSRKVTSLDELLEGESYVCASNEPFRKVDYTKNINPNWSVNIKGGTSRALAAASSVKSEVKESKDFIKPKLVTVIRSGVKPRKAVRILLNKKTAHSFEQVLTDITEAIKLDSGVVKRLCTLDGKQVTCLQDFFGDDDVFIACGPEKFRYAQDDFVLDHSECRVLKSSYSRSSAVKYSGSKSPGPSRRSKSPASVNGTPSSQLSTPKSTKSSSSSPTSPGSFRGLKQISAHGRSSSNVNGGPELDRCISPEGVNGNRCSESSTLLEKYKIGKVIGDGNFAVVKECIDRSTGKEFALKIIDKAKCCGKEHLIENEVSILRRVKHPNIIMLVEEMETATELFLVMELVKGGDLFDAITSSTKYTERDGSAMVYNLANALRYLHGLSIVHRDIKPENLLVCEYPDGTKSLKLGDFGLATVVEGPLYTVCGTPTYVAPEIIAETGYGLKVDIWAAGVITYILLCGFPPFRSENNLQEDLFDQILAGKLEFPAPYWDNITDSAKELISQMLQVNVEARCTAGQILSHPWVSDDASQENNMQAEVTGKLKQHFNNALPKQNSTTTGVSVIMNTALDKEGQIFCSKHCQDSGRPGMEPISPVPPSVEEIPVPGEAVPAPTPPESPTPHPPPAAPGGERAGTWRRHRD
Chain of UniProt Q16644 (whole entry, looked up): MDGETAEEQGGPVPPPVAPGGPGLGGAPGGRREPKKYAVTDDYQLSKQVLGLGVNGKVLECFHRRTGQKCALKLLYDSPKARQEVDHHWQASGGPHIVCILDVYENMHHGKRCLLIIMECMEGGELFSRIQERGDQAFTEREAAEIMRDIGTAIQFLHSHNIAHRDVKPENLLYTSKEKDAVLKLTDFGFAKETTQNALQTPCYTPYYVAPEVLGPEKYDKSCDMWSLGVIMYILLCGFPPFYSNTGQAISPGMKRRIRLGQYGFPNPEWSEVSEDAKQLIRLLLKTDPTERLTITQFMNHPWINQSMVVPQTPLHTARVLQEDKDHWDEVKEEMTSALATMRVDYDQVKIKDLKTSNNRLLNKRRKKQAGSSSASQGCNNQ
Chain of UniProt O75716 (whole entry, looked up): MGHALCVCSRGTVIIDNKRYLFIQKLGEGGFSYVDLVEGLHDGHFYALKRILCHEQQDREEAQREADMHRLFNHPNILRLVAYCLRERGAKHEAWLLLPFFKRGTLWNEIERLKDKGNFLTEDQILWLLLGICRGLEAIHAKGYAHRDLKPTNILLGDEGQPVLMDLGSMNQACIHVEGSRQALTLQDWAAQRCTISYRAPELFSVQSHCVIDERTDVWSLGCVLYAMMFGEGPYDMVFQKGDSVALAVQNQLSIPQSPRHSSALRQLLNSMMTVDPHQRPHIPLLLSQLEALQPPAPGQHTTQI

Block 1 — observed: cell-free assay; technique: competition with immobilised ligand; concentration: 0.1 µM
SMILES: Cc1c[nH]c2nccc(Oc3c(F)cc(Nc4cc(Cl)nc(N)n4)cc3F)c12
| target | remaining binding |
| --- | --- |
| Epithelial discoidin domain-containing receptor 1 (DDR1, Homo sapiens, UniProt Q08345) | 100% |
| Phosphatidylinositol 3-kinase C2 domain-containing subunit gamma (PIK3C2G, Homo sapiens, UniProt O75747) | 100% |
| Ephrin type-B receptor 2 (EPHB2, Homo sapiens, UniProt P29323) | 99% |
| Cyclin-dependent kinase 11B (CDK11B, Homo sapiens, UniProt P21127) | 80% |
| Serine/threonine-protein kinase DCLK2 (DCLK2, Homo sapiens, UniProt Q8N568) | 100% |
| Serine/threonine-protein kinase MRCK beta (CDC42BPB, Homo sapiens, UniProt Q9Y5S2) | 70% |
| Serine/threonine-protein kinase PAK 6 (PAK6, Homo sapiens, UniProt Q9NQU5) | 82% |
| Cyclin-G-associated kinase (GAK, Homo sapiens, UniProt O14976) | 100% |
| Serine/threonine-protein kinase TAO2 (TAOK2, Homo sapiens, UniProt Q9UL54) | 100% |
| Receptor-type tyrosine-protein kinase FLT3 (FLT3, Homo sapiens, UniProt P36888, N841I) | 76% |
| Serine/threonine-protein kinase 24 (STK24, Homo sapiens, UniProt Q9Y6E0) | 100% |
| Ribosomal protein S6 kinase alpha-3, N-terminal kinase domain (RPS6KA3, Homo sapiens, UniProt P51812) | 79% |
| Membrane-associated tyrosine- and threonine-specific cdc2-inhibitory kinase (PKMYT1, Homo sapiens, UniProt Q99640) | 98% |

Block 2 — SMILES: O=C1Cc2c([nH]c3ccc(Br)cc23)-c2ccccc2N1; observed: enzyme activity; mode: inhibitor; concentration: 0.5 µM; relative to: control
| target | remaining activity [%] |
| --- | --- |
| Tyrosine-protein kinase Srms (SRMS, Homo sapiens, UniProt Q9H3Y6) | 105 |
| Mitogen-activated protein kinase kinase kinase kinase 4 (MAP4K4, Homo sapiens, UniProt O95819) | 6.61 |
| Cyclin-dependent kinase 6, with cyclin D3 (CDK6, Homo sapiens, UniProt Q00534) | 94.4 |
| Serine/threonine-protein kinase 17A (STK17A, Homo sapiens, UniProt Q9UEE5) | 102 |
| Calcium/calmodulin-dependent protein kinase type II subunit beta (CAMK2B, Homo sapiens, UniProt Q13554) | 97.8 |
| Serine/threonine-protein kinase WNK3 (WNK3, Homo sapiens, UniProt Q9BYP7) | 95.5 |
| Tyrosine-protein kinase ABL1 (ABL1, Homo sapiens, UniProt P00519) | 82.6 |
| Tyrosine-protein kinase receptor UFO (AXL, Homo sapiens, UniProt P30530) | 101 |
| Cyclin-dependent kinase 1, with cyclin B (CDK1, Homo sapiens, UniProt P06493) | 80.6 |
| Dual specificity tyrosine-phosphorylation-regulated kinase 3 (DYRK3, Homo sapiens, UniProt O43781) | 113 |
| Phosphorylase b kinase gamma catalytic chain, skeletal muscle/heart isoform (PHKG1, Homo sapiens, UniProt Q16816) | 49.7 |
| MAP kinase-activated protein kinase 3 (MAPKAPK3, Homo sapiens, UniProt Q16644) | 100 |
| Ephrin type-B receptor 1 (EPHB1, Homo sapiens, UniProt P54762) | 93.5 |
| Serine/threonine-protein kinase 16 (STK16, Homo sapiens, UniProt O75716) | 98.9 |
| Ephrin type-B receptor 4 (EPHB4, Homo sapiens, UniProt P54760) | 100 |
| Ephrin type-A receptor 4 (EPHA4, Homo sapiens, UniProt P54764) | 96.1 |

Block 3 — technique: RNA Bind-n-Seq; form: RNA; sample: in vitro; concentration: 365 nM; relative to: no-protein control; direction: higher = stronger binding
Target: RNA binding protein fox-1 homolog 2, RRM domain, GST-SBP tag (RBFOX2, Homo sapiens, UniProt O43251-10, residues 100-194)
Notes: natural RNA segment, single round, ends assumed
Shared flanks, not repeated: GGGAGUUCUACAGUCCGACGAUC … UGGAAUUCUCGGGUGCCAA
Construct (chain): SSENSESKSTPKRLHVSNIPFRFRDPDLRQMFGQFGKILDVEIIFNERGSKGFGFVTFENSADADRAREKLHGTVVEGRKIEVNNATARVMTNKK
| Strand | RBNS enrichment (R) |
| --- | --- |
| UGAGGGAGAGGGCAGACUCAGGUGGGAAGAUGUGCCAUGCGUAAGGCAUCAACGUGUAUCUGUGGGAUCUUCGUUGCCUUCAGUAAUCAGGGUGUGAAAAAAGCAGACAA | 0.743 |
| AGAUGAGACUGAAGACAUCAAGAAAUAAAGGAGGGCAUGCAAGUGUGGAGUAUUUACUUGCUCAGUAACUGUGACUGUUGUCUAUUGAGACCUAGCCUAGUUUUCCUGCA | 1.02 |
| UACAUUCUCUACACUCUAACAUUAACAUAUCUAUUCAAAUUUGUCUAGUUGCCAAUUGUCUUCAGAGUGUGAAAAUUUAAAUCCUUCUUGAAGUAUCUUUCGUGAGAGUA | 0.322 |
| GAUAAGUUUGAAAGGAAACUGCUAUUGAACUUAAGCAUCUCUAGCAGAGCAAUUUGAUCAGUAUAUAAAACCCUAGGAUGUGCUAGGUCUAAGAUGGAUUAAACAAGUAU | 0.584 |
| UGACCUUUGAAACAAUUCCAGGGGCAUUCUCAAGUAUUUGAUACCUAGGGGUUUAGUAACUCAGACAAAUUAAUCCCUUUGUACUAAUUUUAUGAAACAGAGCUGGGGGU | 0.366 |
| GCUUGUAUGUUUGGUUUGUUGUUUUUGUUUUUUUGUUUUUUUUAAUGCACAACUUGCUUGUACAGGUCAACUGUCCAUCUUGGGUACUAUUUAACUGUCAAACAGAGGAA | 5.57 |
| UCGGCUCAUAUGAGAGAGCAGGUUCCUGCCCUUGAAAAUGCCGGUAAGCUAUAGCAUAUGUUUUUUAAGACUUAAGCAUUUCAUGCUUUAAAAUACCUUCACAAGUGAAC | 0.271 |
| UCUUGGGCAAUUUUCUAUUAGUGUUUCUUAUUUUGGCCAGUUCUUUUAUUUAUGUCCUUGUGACCCAGGUACUUGGGGGGCCAGCUACCCUUCUGGCCUUUUAGCGUCUU | 0.61 |

Block 4 — technique: protein-binding microarray; form: hairpin DNA; sample: in vitro; concentration: not given; relative to: not given; direction: higher = stronger binding
Target: Microphthalmia-associated transcription factor, full length (MITF, Homo sapiens, UniProt O75030-10, residues 1-413)
Notes: whole hairpin DNA, median over replicate spots
| Strand | median fluorescence [a.u.] |
| --- | --- |
| CACTGAGCACGTGATTTTGGTCCTCCAAAATCACGTGCTCAGTGACACTC | 29200 |
| CACTTAGCACGAGATTTTGGTCCTCCAAAATCTCGTGCTAAGTGACACTC | 14500 |
| GAGGCCTAGGACGTGCTGCCTCCTGGCAGCACGTCCTAGGCCTCACACTC (5mC at 35) | 6030 |
| GAGGCCTACGACGTGCTGCCTCCTGGCAGCACGTCGTAGGCCTCACACTC (5mC at 9) | 6300 |
| GAGGCCTAGCACCGGCTGCCTCCTGGCAGCCGGTGCTAGGCCTCACACTC (5mC at 13) | 5840 |
| GAGGCCTAGCACGTCGTGCCTCCTGGCACGACGTGCTAGGCCTCACACTC (5mC at 15 29) | 5820 |
| GAGGCCTCGCACGTGCTGCCTCCTGGCAGCACGTGCGAGGCCTCACACTC (5mC at 8) | 19700 |
| CACTTAGCACGTGTTTTTGGTCCTCCAAAAACACGTGCTAAGTGACACTC | 20000 |

Excerpt of the above (block 2):
| target | remaining activity [%] |
| --- | --- |
| Mitogen-activated protein kinase kinase kinase kinase 4 (MAP4K4, Homo sapiens, UniProt O95819) | 6.61 |
| Cyclin-dependent kinase 6, with cyclin D3 (CDK6, Homo sapiens, UniProt Q00534) | 94.4 |
| Serine/threonine-protein kinase 17A (STK17A, Homo sapiens, UniProt Q9UEE5) | 102 |
| Calcium/calmodulin-dependent protein kinase type II subunit beta (CAMK2B, Homo sapiens, UniProt Q13554) | 97.8 |
| Serine/threonine-protein kinase WNK3 (WNK3, Homo sapiens, UniProt Q9BYP7) | 95.5 |
| Tyrosine-protein kinase ABL1 (ABL1, Homo sapiens, UniProt P00519) | 82.6 |
